Published values from different studies.
Each numbered part is a random draw from the data of one study; scales do not carry over between parts. Substitutions count along the parent as printed.

Sample 1
Target: ABI1, truncated, D143A, DHFR fusion (Arabidopsis thaliana)
Technique: DHFR PCA, deep sequencing
Medium: yeast
Notes: methotrexate growth selection, single substitutions
Together with: (+)-ABA 710 µM
Baseline: wild-type fitted maximum
Reading: higher = stronger binding
Measurement: relative binding score
Starting sequence: PYL1, truncated, DHFR fusion (Arabidopsis thaliana); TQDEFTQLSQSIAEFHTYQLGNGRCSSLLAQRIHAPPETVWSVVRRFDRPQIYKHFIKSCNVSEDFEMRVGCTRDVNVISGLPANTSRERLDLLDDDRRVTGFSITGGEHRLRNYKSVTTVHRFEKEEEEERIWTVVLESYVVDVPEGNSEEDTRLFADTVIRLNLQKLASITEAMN; partner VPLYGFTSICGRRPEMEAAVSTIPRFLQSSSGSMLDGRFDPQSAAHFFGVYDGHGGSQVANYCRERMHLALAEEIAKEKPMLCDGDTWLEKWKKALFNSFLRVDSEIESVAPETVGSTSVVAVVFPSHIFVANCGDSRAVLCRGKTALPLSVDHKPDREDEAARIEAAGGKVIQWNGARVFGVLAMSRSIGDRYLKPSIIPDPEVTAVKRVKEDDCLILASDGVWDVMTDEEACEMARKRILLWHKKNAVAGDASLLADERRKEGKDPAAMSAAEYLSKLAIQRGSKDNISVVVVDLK
Variant = P36T; result = 97.2%
Variant = T119F; result = 65.6%
Variant = Y115Q; result = -8.42%
Variant = Q7I; result = 98.4%
Variant = R113C; result = 104%
Variant = S11Q; result = 108%

Sample 2
Target: CCNB3, cyclin fold, Cln2 fusion (human)
Technique: yeast growth competition, sequencing
Medium: yeast
Notes: weak parent motif
Baseline: not given
Reading: higher = stronger binding
Measurement: normalised enrichment score
Starting sequence: CDC6 docking peptide (human); TLKGRRLVFDNQL; partner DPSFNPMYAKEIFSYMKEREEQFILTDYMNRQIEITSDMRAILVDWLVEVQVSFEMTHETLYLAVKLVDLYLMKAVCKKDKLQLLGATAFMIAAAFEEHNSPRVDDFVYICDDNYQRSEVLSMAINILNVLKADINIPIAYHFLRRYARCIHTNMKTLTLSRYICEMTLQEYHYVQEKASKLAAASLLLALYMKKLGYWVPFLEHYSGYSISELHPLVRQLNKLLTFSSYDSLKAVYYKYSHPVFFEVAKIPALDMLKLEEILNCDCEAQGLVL
Variant = TLKGRRLVNDNQL [F9N]; result = -0.121
Variant = TLKGRGLVFDNQL [R6G]; result = -0.143
Variant = ELKGRRLVFDNQL [T1E]; result = 0.619
Variant = TLKGRRLVFDNKL [Q12K]; result = 0.0548
Variant = TLKGRRLVFDNNL [Q12N]; result = 0.14

Sample 3
Target: Interferon regulatory factor 7, full length, phosphomimetic (IRF7, Homo sapiens, UniProt Q92985, residues 1-503, S471D/S472D/S475D/S476D/S477D/S483D/S484D/S487D)
Technique: protein-binding microarray
Molecule type: double-stranded DNA, one strand shown
Medium: in vitro
Tested at: 2200 nM top
Notes: 60-bp whole probe
Together with: salmon DNA 0.4 mg/ml
Baseline: random background probes
Reading: higher = stronger binding
Measurement: fitted relative affinity
All sequences stand within: GCCTAGCAC … GTCTTGATTCGCTTGACGCTGCTG
Residues (chain): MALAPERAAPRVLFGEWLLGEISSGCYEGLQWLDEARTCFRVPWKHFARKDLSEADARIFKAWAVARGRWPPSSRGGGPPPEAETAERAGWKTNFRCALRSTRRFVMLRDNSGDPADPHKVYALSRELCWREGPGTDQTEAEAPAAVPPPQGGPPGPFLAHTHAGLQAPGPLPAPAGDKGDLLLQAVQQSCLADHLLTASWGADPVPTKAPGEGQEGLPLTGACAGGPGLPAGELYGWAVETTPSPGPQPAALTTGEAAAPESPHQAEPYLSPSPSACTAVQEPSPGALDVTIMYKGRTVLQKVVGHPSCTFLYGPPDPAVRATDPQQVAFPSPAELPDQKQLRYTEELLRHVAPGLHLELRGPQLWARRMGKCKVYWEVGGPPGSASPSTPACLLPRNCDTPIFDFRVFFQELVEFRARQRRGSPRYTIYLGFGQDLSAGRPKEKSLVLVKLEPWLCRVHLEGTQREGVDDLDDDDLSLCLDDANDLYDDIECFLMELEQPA
Oligonucleotide = GACGGTATCGGGCTTCGGGACGTGCTA; result = -0.447 z-score
Oligonucleotide = TTAGGTTTCCTTCTCGTTTAGTGCTAG; result = 2.23 z-score
Oligonucleotide = TCACATTTTCTCTTATTACTGTGCTAG; result = 2.72 z-score
Oligonucleotide = TTTCCACTTTCTTTTGCTTGGTGCTAG; result = 8.6 z-score
Oligonucleotide = TTCGGTTTCGACACTGGGTTAGTGCTA; result = 4.69 z-score
Oligonucleotide = GACGGTATCCTTTTCTTGACGTGCTAG; result = 1.33 z-score
Oligonucleotide = GATGGAAACTTAAACTAGAAAGTGCTA; result = -0.745 z-score
Oligonucleotide = GACGGTATGCTTTTCCTGACGTGCTAG; result = 0.735 z-score
Oligonucleotide = TCAGTTTCCATTTTCAGACTGTGCTAG; result = 7.43 z-score

Other studies, line by line
Molecule = PhoQ, residues 284 288 289 292 302 303 TSTLRA; target = PhoP, residues 12 14 15 18 19 NQAHL (Escherichia coli, UniProt P23836); test = Sort-seq, measured: YFP reporter; system = E. coli; conditions = PhoQ-PhoP variant library, together with: 10 µM Mg2+; how to read = baseline: high Mg2+ state, higher = stronger signaling; measurement = fold induction; result = 11.3

For quick reference, copied from above (sample 1):
Variant = Q7I; result = 98.4%
Variant = S11Q; result = 108%
Variant = R113C; result = 104%
